Values quoted from earlier work as cited in several papers.
Compare with care: the assays were run in different laboratories.
HLA class I histocompatibility antigen, A alpha chain allele A*26:01: HLA class I histocompatibility antigen, A alpha chain, allele A*26:01 (Homo sapiens, UniProt P04439)

Substance | target or system | test | test system | setting | measurement | value
QIIKLLPF | HLA class I histocompatibility antigen, A alpha chain allele A*26:01 | peptide-MHC binding | peptide | – | IC50 | 13.3 µM
COC(=O)C[C@@H]1N=C(c2ccc(Cl)cc2)c2c(sc(C)c2C)-n2c(C)nnc21 | Bromodomain-containing protein 4, BD2 (BRD4, Homo sapiens, UniProt O60885) | – | – | – | Kd | 0.0254 µM
FC(F)(F)Oc1ccc(Oc2ccnc(N3CCC(NC(=S)Nc4cccnc4)CC3)c2Cl)c(Cl)c1 | ABHD12 | inhibitor | – | – | IC50 | 0.011 µM
CC(C)(C)c1cc(O)ccc1O | – | – | dog | – | NOAEL | 72 mg/kg/day
FLGKIWPS | HLA class I histocompatibility antigen, A alpha chain, allele A*69:01 (Homo sapiens, UniProt P04439) | peptide-MHC binding | peptide | – | IC50 | 2.76 µM
Oc1cc(Cl)ccc1Oc1ccc(Cl)cc1Cl | – | – | plasma | literature value | fraction unbound | 0.01
CCCN1CCC=C(c2cc(-c3ccc(C)cc3)no2)C1 | sigma-1 receptor | binding, antagonist | – | – | Ki | 0.0008 µM
LYLQMNSL | HLA class I histocompatibility antigen, A alpha chain allele A*26:01 | peptide-MHC binding | peptide | – | IC50 | 13.1 µM

Some of these lines once more:
Substance | target or system | test | test system | setting | measurement | value
COC(=O)C[C@@H]1N=C(c2ccc(Cl)cc2)c2c(sc(C)c2C)-n2c(C)nnc21 | Bromodomain-containing protein 4, BD2 (BRD4, Homo sapiens, UniProt O60885) | – | – | – | Kd | 0.0254 µM
